Assay results of several laboratories.
Numbered parts are unrelated; each lists some results of a single study.

Study 1 — technique: RNA Bind-n-Seq; form: RNA; medium: in vitro; tested at: 100 nM; reference: input RNA pool; direction: higher = stronger binding; quantity: bound/input enrichment
Target: RING finger protein unkempt homolog, zinc fingers 1-6, SBP tag (UNK, Homo sapiens, UniProt Q9C0B0, residues 30-357)
Chain of UniProt Q9C0B0 (30-357, looked up): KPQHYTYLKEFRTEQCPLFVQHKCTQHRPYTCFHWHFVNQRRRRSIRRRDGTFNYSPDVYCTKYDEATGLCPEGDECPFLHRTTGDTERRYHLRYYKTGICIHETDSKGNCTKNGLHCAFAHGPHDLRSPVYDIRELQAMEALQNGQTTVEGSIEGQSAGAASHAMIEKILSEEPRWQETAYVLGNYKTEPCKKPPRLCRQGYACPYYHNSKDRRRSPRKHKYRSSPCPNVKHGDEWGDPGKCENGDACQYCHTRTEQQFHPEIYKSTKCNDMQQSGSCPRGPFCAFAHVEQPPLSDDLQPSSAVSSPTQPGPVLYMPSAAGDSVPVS
Notes: RNA with constant flanks, vertebrate orthologous sites, ends assumed
Shared flanks, not repeated: GGGAGUUCUACAGUCCGACGAUC … CAACAGAGGAUUGAGCAUCA
Sequence = GAUUUGAUUCUUUAUGUGUUUUUGUUGUUUUUUUUUAAGGCAUAAAAACAUUUUAAAAAGAGAAAAAUCCCAACAAACCAUUUUUAAAGUAGAAGAGGGUUUUAGCUAGAAACAUGUAUU; result = 0.697 ratio
Sequence = AUUCAUCUCUUUUUAUAUGUCCGAAAACGGCCGAGCUUUUCAGCAGUGGCUGGCUUGGCCGACUCUGCCGUCCCUGGCAGAGCGUUGUUACUGUUGCUCCUUAGCAGCUGCUGCCUGGUG; result = 0.627 ratio
Sequence = AUCUCUCAGUGACAGCAUUCCAUCUGUGGCUGACUCCCACUCGAGUCAUUUUUCUGAAUUCAGUUGCUCUGACUUGGAAAGCAUGAAGACUUCUUGUAGUCAUGGCUCCAAUGAUUAUCA; result = 0.312 ratio
Sequence = AUUCAAACCUGUGGUACCAUGGCCUCAUGUUGAAGGAGUAGAAGUGGACUUAGAGUCUAUUAGAAGAAAAAACAAGGCCAAAAAUGAACAAGAGCAUCAUGCUGGAGGAGAUUCCCAGAA; result = 0.39 ratio
Sequence = UGCAGGAAUGGCCCCCAUCCCGCCUGUUUAUUCUGUAAACUACAGCCUGUAAAUAACAUUUAGCAUUCCUAUUGUAACAAAAUUAAUUUUUAUGAAAUAAAUUAUAUUUCCUAGUCUAAU; result = 0.759 ratio
Sequence = UAUUUUCUUAUUUUAGGUAUCAUUGCCCAGUGCCUAAGAUCUUUUAUGUUCAGCUCACUGUAGGAAAUAAUGAAUUUUUUGGGGAAGGAAAGACUCGACAAGCUGCUAGACACAAUGCUG; result = 1.26 ratio
Sequence = AGUAGUAUUAAAGAAGAAACAUUUUUGUCUUCCUUUAUCAUUUAAUCCCUACCUAAUACCUAGACUCCUUUUUAAAAUUUCAGACUUCACUGCUCUUUGAAUUGAUAAUUCCAAUUUUCA; result = 0.641 ratio
Sequence = UUGGGAACAGCUCUCCAAAUAGGAAUAGUAGUAAAAAAAAUAAGCAAAAUGAUAUUUGUGUAGAAAAAACAGAAGUUAAAUCAUGUAAAGUAAAUGCUGCCAACCUUCCGGGUCCUAAAG; result = 1.35 ratio

Study 2 — technique: protein binding microarray; form: double-stranded DNA, one strand shown; medium: in vitro; tested at: not given; reference: not given; direction: higher = stronger binding; quantity: E-score
Target: Histone acetyltransferase KAT6A, both winged helices, GST fusion (KAT6A, Homo sapiens, UniProt Q92794, residues 1-181)
Notes: 8-mer, flanks averaged, mean of 2 arrays, mostly near background
Construct (chain): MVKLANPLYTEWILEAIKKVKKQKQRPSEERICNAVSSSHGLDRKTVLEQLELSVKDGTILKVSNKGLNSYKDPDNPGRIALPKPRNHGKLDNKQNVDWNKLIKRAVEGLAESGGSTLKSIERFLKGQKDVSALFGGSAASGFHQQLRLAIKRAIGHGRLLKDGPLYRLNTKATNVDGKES
Sequence = AGCTTCCT; result = 0.0108
Sequence = CCATGGCG; result = 0.155
Sequence = AACCTCTA; result = -0.0044
Sequence = AATCAATG; result = 0.101
Sequence = AGCCCACC; result = -0.025
Sequence = CCCCGTTC; result = 0.116
Sequence = CCGGTTTC; result = 0.218
Sequence = CATTGCGG; result = 0.182
Sequence = TATAGGCA; result = -0.144
Sequence = ACACGCGG; result = 0.247
Sequence = AGTTATCA; result = -0.111
Sequence = CGATGCCC; result = -0.0208
Sequence = ACGGAGAG; result = 0.106
Sequence = CGGCACAA; result = 0.215
Sequence = GAAGGGAA; result = -0.011
Sequence = CAGAGTAC; result = 0.034
Sequence = CCACTTGC; result = -0.23
Sequence = CTACTGGA; result = -0.272
Sequence = CAGCGGAG; result = 0.113
Sequence = AGGGCAAC; result = -0.09
Sequence = GCCATGCA; result = -0.061
Sequence = CAGGCCGC; result = 0.127
Sequence = CGGATTGC; result = 0.246
Sequence = CGTTTTTC; result = 0.11
Sequence = AACTAACG; result = 0.158

Study 3 — technique: universal PBM; form: double-stranded DNA, one strand shown; medium: in vitro; tested at: not given; direction: higher = stronger binding; quantity: E-score
Target: Sal-like protein 4, full length isoform B (SALL4, Homo sapiens, UniProt Q9UJQ4-2, residues 1-616)
Notes: 8-mer, flanks averaged, mean of replicates
Sequence = AGCCGCCC; result = -0.316
Sequence = CGCACCGC; result = -0.316
Sequence = CCCGATCC; result = -0.253
Sequence = TGGTCACA; result = 0.0283
Sequence = GAGATCAA; result = 0.0483
Sequence = AACCTAAC; result = 0.0331
Sequence = AGAAGCTA; result = -0.0586
Sequence = ACAGCAAG; result = 0.104
Sequence = CTTACGTC; result = -0.229
Sequence = ATCGCGAA; result = -0.0677
Sequence = AAGTCCGC; result = -0.213
Sequence = AAAGACAG; result = 0.0171
Sequence = GATTCTCC; result = -0.228
Sequence = GCATGTCC; result = -0.206
Sequence = AATCCATT; result = 0.174
Sequence = ACAGGAAA; result = 0.154
Sequence = TCTCGTCA; result = 0.0243
Sequence = AAACAGTT; result = 0.15
Sequence = CATAAACG; result = 0.267
Sequence = CTGGTCTC; result = -0.239
Sequence = CATCCTTC; result = 0.0421
Sequence = GTTAGAAC; result = 0.0644
Sequence = TCAAGTCA; result = 0.103
Sequence = GTAGACAA; result = 0.172
Sequence = CAGGCCTG; result = -0.252

Study 4 — technique: RNA Bind-n-Seq; form: RNA; medium: in vitro; tested at: 365 nM; reference: no-protein control; direction: higher = stronger binding; quantity: RBNS enrichment (R)
Target: RNA binding protein fox-1 homolog 2, RRM domain, GST-SBP tag (RBFOX2, Homo sapiens, UniProt O43251-10, residues 100-194)
Notes: natural RNA segment, single round, ends assumed
Shared flanks, not repeated: GGGAGUUCUACAGUCCGACGAUC … UGGAAUUCUCGGGUGCCAA
Residues (chain): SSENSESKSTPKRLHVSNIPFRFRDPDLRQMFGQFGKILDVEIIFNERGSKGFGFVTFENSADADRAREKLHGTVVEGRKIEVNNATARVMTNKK
Sequence = AGGUAGUUAAGUGUCACACAAGGUGUUGUUGCAAUGGCAUGACGGUGACCUGUUGACGUAACUAAGCCUUACAGCAAGGCAUGUGCCGCACGUGCUCCGUGGUACUUAGA; result = 4.28
Sequence = CGUGUGGACCGCCAGGCCCUCUCAGUCCAUUUUCCGGGGCUGCUCGGUGCUGCUGUUAAGACGUGAGUGCAUUUCACUUGGAAGAACCCAUUGUACAAAGUUCAAGGCUA; result = 0.27
Sequence = UUUGGUUUAUUUUGUUAUUUUGUUUUGUUUUUGUUUUUUUGGUUUCAUUUUGUUUUGGGUUGGUCCAAUUUUAAAAGGAAAUACUACAAUAAAAAUGUUAACCAGAAGGU; result = 3.77
Sequence = AUGGCGGUCUGCUGGUGCCCUCGAAGGGGCAUCCUUCCUGGUCUUCGCUGACCCAGAGGCGCUGUGCCUGCAUAUCAUCCACCACCACCCUAGCCCAGCCUUCCCACUGC; result = 0.552
Sequence = GAUAGAGAAAUAUGUCUUUGAAGCUCCACUUACACAAAAAUAAAACUUGUAUAUCAUGCUCCCUCAAAGAAUGUGCGAUAGAUUAUUUUAAGACCAUGAUAAUAGAGUAA; result = 0.738
Sequence = AUCAAGCUGUUGGGAGAAAUGGGAGGGCAGGGGAAAGAUGUAAAGCCAAAGUACAGCAGGAACCCACCACCUGUUUCCCUUCCUUCUCCCAUUCUACUCCCAGUCCGGAA; result = 0.398
Sequence = GUGUUUGCUGUCAUGCCCCAUGAGUAGCUCCUUACUUGGUCUGCUCAGGGCAUCCUAGGGAAUGUUCCUUUCCCCCACUCCUCCCUCCCUACCGUGGUGGAUUCCCAGCU; result = 0.434
Sequence = CACGCUCAGUGUCUUUGAUAAAAUAGUGUCUUUUUUUCAUGUGUUUUUAUUUCAUUUCUAAGAUUUUUUUUUUAACACUCCGUAUUCUGGAGCAUUUUUUUACAAUUUGG; result = 1.03

Repeated from above (study 3):
Sequence = GCATGTCC; result = -0.206
Sequence = CATAAACG; result = 0.267
Sequence = CGCACCGC; result = -0.316
Sequence = GATTCTCC; result = -0.228
Sequence = CTGGTCTC; result = -0.239
Sequence = AATCCATT; result = 0.174
Sequence = AAAGACAG; result = 0.0171
Sequence = TCAAGTCA; result = 0.103
Sequence = ATCGCGAA; result = -0.0677
Sequence = TGGTCACA; result = 0.0283
